Earlier results as cited in several papers.
Numbers after ± are the reported error.
CTSB: Cathepsin B (CTSB, Homo sapiens, UniProt P07858)
PSMB1/PSMB5/PSMB3: PSMB1/PSMB5/PSMB3 (Homo sapiens, UniProt P20618+P28074+P49720)
UniProt P49720, sequence (whole entry, looked up): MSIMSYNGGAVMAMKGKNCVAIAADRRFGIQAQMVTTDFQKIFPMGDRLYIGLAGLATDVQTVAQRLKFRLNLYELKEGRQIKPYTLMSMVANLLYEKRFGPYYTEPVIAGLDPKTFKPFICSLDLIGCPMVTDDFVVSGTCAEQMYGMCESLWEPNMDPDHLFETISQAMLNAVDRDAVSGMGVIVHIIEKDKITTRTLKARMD
UniProt P28074, sequence (whole entry, looked up): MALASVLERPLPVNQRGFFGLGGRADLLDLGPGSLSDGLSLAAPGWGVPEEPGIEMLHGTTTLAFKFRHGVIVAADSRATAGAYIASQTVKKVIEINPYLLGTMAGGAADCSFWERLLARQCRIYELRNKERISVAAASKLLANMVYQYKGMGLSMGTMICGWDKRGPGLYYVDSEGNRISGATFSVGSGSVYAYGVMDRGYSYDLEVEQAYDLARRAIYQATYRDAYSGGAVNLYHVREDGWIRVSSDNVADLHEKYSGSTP
UniProt P20618, sequence (whole entry, looked up): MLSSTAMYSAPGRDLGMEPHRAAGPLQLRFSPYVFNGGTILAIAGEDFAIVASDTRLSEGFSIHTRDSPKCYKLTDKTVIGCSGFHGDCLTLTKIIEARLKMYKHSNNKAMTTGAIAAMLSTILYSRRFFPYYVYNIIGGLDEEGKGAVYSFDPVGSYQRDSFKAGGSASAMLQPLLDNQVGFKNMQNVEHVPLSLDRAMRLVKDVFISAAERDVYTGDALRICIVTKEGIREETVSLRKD
CYP2C19: Cytochrome P450 2C19 (CYP2C19, Homo sapiens, UniProt P33261)
UniProt P33261, sequence (whole entry, looked up): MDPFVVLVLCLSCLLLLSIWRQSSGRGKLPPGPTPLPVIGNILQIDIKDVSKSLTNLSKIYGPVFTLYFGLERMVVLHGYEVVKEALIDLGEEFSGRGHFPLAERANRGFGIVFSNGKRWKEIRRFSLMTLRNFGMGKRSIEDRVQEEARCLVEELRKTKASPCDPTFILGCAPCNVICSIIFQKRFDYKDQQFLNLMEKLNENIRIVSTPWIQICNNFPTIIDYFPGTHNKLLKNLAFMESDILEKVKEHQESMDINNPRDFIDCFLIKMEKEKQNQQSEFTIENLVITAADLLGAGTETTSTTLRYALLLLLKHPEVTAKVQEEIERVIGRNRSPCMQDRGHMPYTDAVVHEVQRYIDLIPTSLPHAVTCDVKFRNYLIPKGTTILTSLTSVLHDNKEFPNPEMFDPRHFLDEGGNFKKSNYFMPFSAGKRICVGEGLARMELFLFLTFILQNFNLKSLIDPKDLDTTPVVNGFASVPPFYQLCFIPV
UniProt Q9UNQ0, sequence (whole entry, looked up): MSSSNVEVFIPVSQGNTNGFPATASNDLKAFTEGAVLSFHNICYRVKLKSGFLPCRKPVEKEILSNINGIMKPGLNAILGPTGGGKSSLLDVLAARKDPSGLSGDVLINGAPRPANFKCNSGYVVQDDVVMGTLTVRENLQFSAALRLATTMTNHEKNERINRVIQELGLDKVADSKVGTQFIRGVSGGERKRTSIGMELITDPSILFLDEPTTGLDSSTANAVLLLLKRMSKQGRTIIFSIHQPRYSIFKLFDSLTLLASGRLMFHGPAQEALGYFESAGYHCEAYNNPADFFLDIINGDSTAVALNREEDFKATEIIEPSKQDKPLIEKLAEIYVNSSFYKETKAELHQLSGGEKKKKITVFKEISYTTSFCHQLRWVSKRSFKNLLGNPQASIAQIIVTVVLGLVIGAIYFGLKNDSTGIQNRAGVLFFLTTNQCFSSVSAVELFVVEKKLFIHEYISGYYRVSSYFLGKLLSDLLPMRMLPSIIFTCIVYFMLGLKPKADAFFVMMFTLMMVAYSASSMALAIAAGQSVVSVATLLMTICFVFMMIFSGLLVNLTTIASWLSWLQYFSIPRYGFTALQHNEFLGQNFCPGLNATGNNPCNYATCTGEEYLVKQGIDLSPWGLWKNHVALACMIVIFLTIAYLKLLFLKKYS
UniProt Q12888, sequence (whole entry, looked up): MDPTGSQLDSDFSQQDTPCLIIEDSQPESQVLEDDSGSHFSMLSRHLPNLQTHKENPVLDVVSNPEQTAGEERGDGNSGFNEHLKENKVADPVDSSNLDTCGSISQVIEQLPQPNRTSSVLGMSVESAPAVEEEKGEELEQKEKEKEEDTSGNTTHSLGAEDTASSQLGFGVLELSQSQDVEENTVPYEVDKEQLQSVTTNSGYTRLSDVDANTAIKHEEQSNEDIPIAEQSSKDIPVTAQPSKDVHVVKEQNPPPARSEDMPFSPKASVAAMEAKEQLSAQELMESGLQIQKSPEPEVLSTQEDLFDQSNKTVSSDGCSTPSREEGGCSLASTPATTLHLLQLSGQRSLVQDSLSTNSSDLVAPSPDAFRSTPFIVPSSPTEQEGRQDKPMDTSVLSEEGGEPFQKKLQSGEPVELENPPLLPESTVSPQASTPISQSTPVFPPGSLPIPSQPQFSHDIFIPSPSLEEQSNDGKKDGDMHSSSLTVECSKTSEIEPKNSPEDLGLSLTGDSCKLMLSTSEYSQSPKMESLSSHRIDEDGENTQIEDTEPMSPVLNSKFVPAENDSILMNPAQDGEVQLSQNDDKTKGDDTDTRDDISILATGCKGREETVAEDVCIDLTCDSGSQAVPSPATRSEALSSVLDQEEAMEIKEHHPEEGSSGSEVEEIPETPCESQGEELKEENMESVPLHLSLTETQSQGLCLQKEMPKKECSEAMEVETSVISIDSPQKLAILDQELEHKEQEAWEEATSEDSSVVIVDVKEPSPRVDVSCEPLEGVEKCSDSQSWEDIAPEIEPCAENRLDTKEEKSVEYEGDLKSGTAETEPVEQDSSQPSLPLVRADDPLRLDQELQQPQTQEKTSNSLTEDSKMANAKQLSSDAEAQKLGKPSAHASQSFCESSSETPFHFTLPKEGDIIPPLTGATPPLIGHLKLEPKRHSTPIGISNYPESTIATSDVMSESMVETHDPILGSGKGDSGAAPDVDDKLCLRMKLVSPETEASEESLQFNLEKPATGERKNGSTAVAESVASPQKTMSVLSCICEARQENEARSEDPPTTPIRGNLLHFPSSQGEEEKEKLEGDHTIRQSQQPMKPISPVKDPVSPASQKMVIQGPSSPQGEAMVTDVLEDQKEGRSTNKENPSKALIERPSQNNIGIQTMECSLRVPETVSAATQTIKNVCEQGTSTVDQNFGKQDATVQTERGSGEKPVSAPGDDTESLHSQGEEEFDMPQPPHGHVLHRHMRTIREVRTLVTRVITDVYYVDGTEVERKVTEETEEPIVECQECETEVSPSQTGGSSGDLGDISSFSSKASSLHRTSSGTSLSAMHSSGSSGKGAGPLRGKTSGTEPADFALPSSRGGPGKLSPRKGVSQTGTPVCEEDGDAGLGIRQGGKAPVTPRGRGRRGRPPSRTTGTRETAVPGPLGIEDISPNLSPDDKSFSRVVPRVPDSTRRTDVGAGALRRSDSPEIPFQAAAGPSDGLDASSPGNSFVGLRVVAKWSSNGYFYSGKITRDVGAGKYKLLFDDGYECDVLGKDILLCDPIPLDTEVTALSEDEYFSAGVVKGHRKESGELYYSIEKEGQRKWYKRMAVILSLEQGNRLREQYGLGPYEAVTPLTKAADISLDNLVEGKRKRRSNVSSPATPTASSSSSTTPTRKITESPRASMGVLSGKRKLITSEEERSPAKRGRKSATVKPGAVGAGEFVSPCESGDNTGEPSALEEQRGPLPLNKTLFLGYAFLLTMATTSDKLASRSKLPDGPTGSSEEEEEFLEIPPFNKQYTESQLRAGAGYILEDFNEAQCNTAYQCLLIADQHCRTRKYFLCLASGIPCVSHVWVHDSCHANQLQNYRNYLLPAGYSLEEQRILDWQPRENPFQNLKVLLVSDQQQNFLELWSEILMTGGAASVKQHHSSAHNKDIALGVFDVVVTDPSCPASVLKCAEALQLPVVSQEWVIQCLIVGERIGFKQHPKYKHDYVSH
UniProt P23443, sequence (whole entry, looked up): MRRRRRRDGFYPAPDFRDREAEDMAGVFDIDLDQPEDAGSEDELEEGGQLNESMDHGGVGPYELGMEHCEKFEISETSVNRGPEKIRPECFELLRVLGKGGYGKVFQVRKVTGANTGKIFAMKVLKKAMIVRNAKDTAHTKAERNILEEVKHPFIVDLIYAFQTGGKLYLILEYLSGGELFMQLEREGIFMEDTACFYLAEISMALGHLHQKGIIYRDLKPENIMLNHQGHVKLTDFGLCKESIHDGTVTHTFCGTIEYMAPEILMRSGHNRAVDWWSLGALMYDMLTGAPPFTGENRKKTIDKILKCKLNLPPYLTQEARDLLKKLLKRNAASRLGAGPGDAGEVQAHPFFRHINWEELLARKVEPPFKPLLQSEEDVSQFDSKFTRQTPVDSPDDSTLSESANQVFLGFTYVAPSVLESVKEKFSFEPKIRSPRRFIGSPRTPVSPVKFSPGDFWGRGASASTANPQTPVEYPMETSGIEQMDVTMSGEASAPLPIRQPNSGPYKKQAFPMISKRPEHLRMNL
UniProt P27338, sequence (whole entry, looked up): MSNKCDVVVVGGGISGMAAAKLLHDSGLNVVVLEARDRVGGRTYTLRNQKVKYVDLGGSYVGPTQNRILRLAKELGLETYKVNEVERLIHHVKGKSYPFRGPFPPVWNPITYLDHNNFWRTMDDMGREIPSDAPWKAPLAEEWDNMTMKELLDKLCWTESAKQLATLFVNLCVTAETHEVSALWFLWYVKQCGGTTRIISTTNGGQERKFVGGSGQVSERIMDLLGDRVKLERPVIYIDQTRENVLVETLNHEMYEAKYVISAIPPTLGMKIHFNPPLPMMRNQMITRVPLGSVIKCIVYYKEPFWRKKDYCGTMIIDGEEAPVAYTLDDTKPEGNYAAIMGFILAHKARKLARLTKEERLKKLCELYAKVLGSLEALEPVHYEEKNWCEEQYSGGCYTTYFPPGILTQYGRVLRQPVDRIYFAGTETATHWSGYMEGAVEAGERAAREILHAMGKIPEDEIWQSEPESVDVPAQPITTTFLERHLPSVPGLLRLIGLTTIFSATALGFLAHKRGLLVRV

CC(C)C[C@H](NC(=O)[C@H]1O[C@@H]1C(=O)O)C(=O)NCCCCN=C(N)N (relative stereo)
IC50 (CTSB; literature value): 0.055 µM

CC1=C[C@@]2(C[C@H](C)[C@H]3CC=C(CO)C(=O)[C@@H]3O2)OC1=O
IC50 (PTP1B; inhibitor): 59.7 µM

Oc1ccc(O)cc1
IC50 (tyrosinase; inhibitor): 25.9 µM

CCOCC(=O)N1CCC[C@H](C(=O)NCc2nc(-c3ccc(C#N)cc3)cs2)C1
IC50 (PSMB1/PSMB5/PSMB3; enzyme activity, inhibitor): > 30 µM

CC1=NN(c2ccc(C)c(C)c2)C(=O)/C1=N\Nc1cccc(-c2cccc(C(=O)O)c2)c1O
IC50 (ABCG2 (Homo sapiens, UniProt Q9UNQ0); inhibitor): 2.7 µM

CC(C)=CCc1cc2c(cc1O)O[C@H](c1ccc(O)cc1)CC2=O
IC50 (cholesterol acyltransferase; inhibitor): 86 µM

C=C1CN(S(=O)(=O)c2ccc(C)cc2)CCCN(Cc2ccccc2)CCCN(S(=O)(=O)c2ccc(C)cc2)C1
IC50 (Sortilin (Homo sapiens, UniProt Q99523); protein down-modulation, degrader): 5.6 µM

CC(C)C[C@H](NC(=O)[C@@H](NC(=O)N[C@@H](Cc1ccccc1)C(=O)O)[C@@H]1CCN=C(N)N1)C(=O)N[C@H](C=O)Cc1ccccc1
IC50 (CTSB; literature value): 1.8 µM

O=C(O)c1cc(O)c(O)c(OC(=O)c2cc(O)c(O)c(O)c2)c1
IC50 (tyrosinase; inhibitor): > 100 µM

C[C@@]12C(=O)OC(=O)[C@]1(C)[C@H]1CC[C@@H]2O1
IC50 (protein phosphatase 2A; enzyme activity, inhibitor): 0.04 µM

Cc1ccccc1NC(=O)CN1C(=O)SC(=CC2CCCN2c2cccc(C(=O)O)c2)C1=O (centres unmarked)
IC50 (KEAP1 NRF2-binding domain): 10.4 µM

C=C(C)[C@H](CC=C(C)C)Cc1c(O)cc(OC)c2c1O[C@H](c1ccc(O)cc1O)CC2=O
IC50 (tyrosinase; inhibitor): 6.2 µM

COc1cc(N)c(Cl)cc1NC(=O)Nc1cnc(C#N)cn1
IC50 (CHEK1 (Homo sapiens, UniProt O14757); inhibitor): 0.005 µM

COCC(=O)N1CCC[C@H](C(=O)NCc2nc(-c3ccc(OC)cc3)cs2)C1
IC50 (PSMB1/PSMB5/PSMB3; enzyme activity, inhibitor): > 30 µM

C#CCOc1ccccc1CCCCCC(=O)O
IC50 (Cytochrome P450 2C9 (CYP2C9, Homo sapiens, UniProt P11712); inhibitor): 23 µM

Cc1ccc(S(=O)(=O)c2ncccc2[N+](=O)[O-])cc1
IC50 (thioredoxin reductase 1; enzyme activity): 0.75 µM

Nc1cc(C(F)(F)F)c(-c2nc(N3CCOCC3)nc(N3CCOCC3)n2)cn1
remaining activity (TAOK3 (Homo sapiens, UniProt Q9H2K8); enzyme activity; 10 µM; relative to: untreated): 87%

CCN(CC)c1cc(C)c2cc(NC(=O)/C=C/c3ccco3)ccc2n1
IC50 (TP53-binding protein 1, tandem tudor domain (Homo sapiens, UniProt Q12888); binding; tandem tudor domain): 1.69 µM

O=C1O[C@H]2[C@@H]3OC(=O)c4cc(O)c(O)c(O)c4-c4c(O)c(O)c5oc(=O)c6c(c(O)c(O)c7oc(=O)c4c5c76)-c4c(cc(O)c(O)c4O)C(=O)OC[C@H]3OC(O)[C@@H]2OC(=O)c2cc(O)c(O)c(O)c2-c2c1cc(O)c(O)c2O (mixture of isomers)
IC50 (sortase A, Staphylococcus aureus; inhibitor): 4.23 µg/mL

CC(=O)N1CCc2c(c(N3CCCc4cc(-c5cnn(C)c5)c(C(F)F)cc43)nn2C2CCOCC2)C1
IC50 (Bromodomain-containing protein 4, BD1 (BRD4, Homo sapiens, UniProt O60885); biochemical; bromodomain 1): 0.241 µM

CCN(CC)CCOC(=O)c1ccc(N)cc1
IC50 (NMDA receptor): 296 µM

O=C(O)c1cc(O)c(O)c(O)c1
IC50 (tyrosinase; inhibitor): > 100 µM

CC1(C)S[C@@H]2[C@H](NC(=O)[C@H](N)c3ccccc3)C(=O)N2[C@H]1C(=O)O
MIC (Escherichia coli; clinical isolate RKI-No_443/16): > 16 µg/mL

Oc1ccc([C@@H]2c3c(O)cc(O)cc3[C@@H]3c4c(cc(O)c5c4[C@@H]2[C@H](c2ccc(O)cc2)[C@H]5c2cc(O)cc4c2[C@H](c2cc(O)cc(O)c2)[C@@H](c2ccc(O)cc2)O4)O[C@H]3c2ccc(O)cc2)cc1
IC50 (α-amylase; enzyme activity, inhibitor): 1140 µM

COc1ccc(C(N)=O)cn1
IC50 (NNMT (Homo sapiens, UniProt P40261); inhibitor): 2.45 ± 0.08 µM

C#CCOc1ccccc1CCCCCC(=O)NS(C)(=O)=O
IC50 (CYP2C19; inhibitor): > 80 µM

COc1ccc(-c2coc3cc(O)ccc3c2=O)cc1O
IC50 (tyrosinase; inhibitor): 38.4 ± 0.9 µM

O=C(O)c1cc(O)c2c(c1)C(=O)c1cc(O)cc(O)c1C2=O
IC50 (MAOB (Homo sapiens, UniProt P27338)): 54.7 ± 0.74 µM

OC(Cn1cncn1)(Cn1cncn1)c1ccc(F)cc1F
IC50 (CYP17A1 lyase; androgen synthesis): 114 to 209 µM

O=C(/C=C/c1ccc(O)c(O)c1)O[C@@H]1C[C@](O)(C(=O)O)C[C@@H](O)[C@H]1O
IC50 (sortase A, Staphylococcus aureus; inhibitor): 33.9 µg/mL

COc1cc(O)c(CC=C(C)C)c(O)c1C(=O)/C=C/c1ccc(O)cc1
IC50 (Xenopus laevis deiodinase type 3): 0.31 ± 0.06 µM

CCn1cc(-c2ccnc3[nH]c(-c4cccc(CN(C)C)c4)cc23)c(-c2ccc(NC(=O)N(C)C)cc2)n1
IC50 (Aurora kinase C (AURKC, Homo sapiens, UniProt Q9UQB9); kinase activity, inhibitor): 0.0015 µM

O=C(OC[C@H]1O[C@@H](OC(=O)c2cc(O)c(O)c(O)c2)[C@H](OC(=O)c2cc(O)c(O)c(O)c2)[C@@H](OC(=O)c2cc(O)c(O)c(O)c2)[C@@H]1O)c1cc(O)c(O)c(O)c1
IC50 (tyrosinase; inhibitor): 30 µM

Ic1ccc(CSCn2ccnc2)cc1
IC50 (CYP2C19; inhibitor): 0.037 µM

N=C(N)c1ccc(N=Nc2c(O)ccc3cc(O)ccc23)cc1
IC50 (RPS6KA3 (Homo sapiens, UniProt P51812); enzyme activity, inhibitor): 1 µM

COc1ccc(CNc2c(CO)cnc3c(C4CC4)cc(C#N)cc23)cc1Cl
IC50 (PDE9A (Homo sapiens, UniProt O76083)): > 10 µM

O=c1c(O)c(-c2ccc(O)c(O)c2)oc2cc(O)cc(O)c12
IC50 (sortase A, Staphylococcus aureus; inhibitor): 157 µM

C[C@H]1COCCN1c1nc(-c2cnc(N)cc2C(F)F)nc(N2CCOCC2)n1
GI50 (A-427): 0.168 µM

O=C(O)[C@H]1O[C@@H](Oc2c(O)cc(O)c3c(=O)c(O)c(-c4ccc(O)c(O)c4)oc23)[C@H](O)[C@@H](O)[C@@H]1O
IC50 (sortase A, Staphylococcus aureus; inhibitor): 31.2 µg/mL

C=C(C)[C@H](CC=C(C)C)Cc1c(O)cc(OC)c(C(=O)/C=C/c2ccc(O)cc2O)c1O
IC50 (tyrosinase; inhibitor): 0.6 µM

CNC(C)C1CCC(N)C(OC2C(N)CC(N)C(OC3OCC(C)(O)C(NC)C3O)C2O)O1 (centres unmarked)
MIC (Escherichia coli; clinical isolate RKI-No_583/16): > 8 µg/mL

Oc1ccc([C@H]2Oc3cc(O)cc4c3[C@@H]2c2cc(O)cc3c2[C@@H](c2cc(O)cc5c2[C@@H]4[C@H](c2ccc(O)cc2)O5)[C@H](c2ccc(O)cc2)O3)cc1
IC50 (alpha-amylase (porcine pancreas); starch-iodine; with: starch): 4.8 µM

Clc1ccc(C2(c3ccc(-c4cn[nH]c4)cc3)CCNCC2)cc1
IC50 (RPS6KB1 (Homo sapiens, UniProt P23443); inhibitor): 0.085 µM

COc1cc(N2CCC3(CCN(C)CC3)CC2)ccc1Nc1ncc(Cl)c(Nc2ccccc2P(C)(C)=O)n1
IC50 (EGFR L858R/T790M): 0.0167 µM

O=C(O)c1ccc(-c2c[nH]c3ncc(-c4ccccc4)cc23)cc1C1CCCC1
IC50 (Aurora kinase B (AURKB, Homo sapiens, UniProt Q96GD4); kinase activity, inhibitor): 0.00528 µM

C=C(C)[C@H](CC=C(C)C)Cc1c(O)cc(O)c2c1O[C@H](c1ccc(O)cc1O)CC2=O
IC50 (tyrosinase; inhibitor): 6.6 µM

CC1=C(/C=C/C(C)=C/C=C/C(C)=C\C(=O)O)C(C)(C)CCC1
IC50 (PTP1B): 44 µM

A few entries again:
CC1=C[C@@]2(C[C@H](C)[C@H]3CC=C(CO)C(=O)[C@@H]3O2)OC1=O
IC50 (PTP1B; inhibitor): 59.7 µM

CC(=O)N1CCc2c(c(N3CCCc4cc(-c5cnn(C)c5)c(C(F)F)cc43)nn2C2CCOCC2)C1
IC50 (Bromodomain-containing protein 4, BD1 (BRD4, Homo sapiens, UniProt O60885); biochemical; bromodomain 1): 0.241 µM

C=C(C)[C@H](CC=C(C)C)Cc1c(O)cc(O)c2c1O[C@H](c1ccc(O)cc1O)CC2=O
IC50 (tyrosinase; inhibitor): 6.6 µM
